Assay results pooled from the literature.
Lines come from different studies, so protocols differ. Several values in a cell are separate wells, animals, samples, runs or records. Numbers after ± are the reported error.
HTR2A: 5-hydroxytryptamine receptor 2A (HTR2A, Homo sapiens, UniProt P28223)
UniProt Q8VDG7, sequence (whole entry, looked up): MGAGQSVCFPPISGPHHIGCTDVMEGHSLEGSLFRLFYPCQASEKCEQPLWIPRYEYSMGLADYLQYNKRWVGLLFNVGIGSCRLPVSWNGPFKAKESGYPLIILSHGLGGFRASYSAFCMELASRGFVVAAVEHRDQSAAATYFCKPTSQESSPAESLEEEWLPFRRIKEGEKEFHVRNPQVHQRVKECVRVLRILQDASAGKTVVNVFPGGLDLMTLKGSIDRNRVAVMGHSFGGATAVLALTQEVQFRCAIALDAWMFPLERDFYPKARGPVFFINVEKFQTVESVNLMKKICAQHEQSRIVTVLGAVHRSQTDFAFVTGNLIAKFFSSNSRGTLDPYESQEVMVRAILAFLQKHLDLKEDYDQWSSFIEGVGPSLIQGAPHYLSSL
UniProt Q9UH17, sequence (whole entry, looked up): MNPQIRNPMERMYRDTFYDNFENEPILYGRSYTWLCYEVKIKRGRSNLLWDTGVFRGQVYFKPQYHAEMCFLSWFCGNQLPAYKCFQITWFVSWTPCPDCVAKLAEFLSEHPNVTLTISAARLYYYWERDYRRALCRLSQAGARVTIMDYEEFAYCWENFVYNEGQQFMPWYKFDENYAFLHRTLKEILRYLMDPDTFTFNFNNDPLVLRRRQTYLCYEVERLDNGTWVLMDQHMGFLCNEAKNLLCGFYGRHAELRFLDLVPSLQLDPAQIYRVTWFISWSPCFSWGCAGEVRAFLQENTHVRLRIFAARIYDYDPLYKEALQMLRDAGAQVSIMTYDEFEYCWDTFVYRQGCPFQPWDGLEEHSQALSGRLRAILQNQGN
UniProt Q6DWJ6, sequence (whole entry, looked up): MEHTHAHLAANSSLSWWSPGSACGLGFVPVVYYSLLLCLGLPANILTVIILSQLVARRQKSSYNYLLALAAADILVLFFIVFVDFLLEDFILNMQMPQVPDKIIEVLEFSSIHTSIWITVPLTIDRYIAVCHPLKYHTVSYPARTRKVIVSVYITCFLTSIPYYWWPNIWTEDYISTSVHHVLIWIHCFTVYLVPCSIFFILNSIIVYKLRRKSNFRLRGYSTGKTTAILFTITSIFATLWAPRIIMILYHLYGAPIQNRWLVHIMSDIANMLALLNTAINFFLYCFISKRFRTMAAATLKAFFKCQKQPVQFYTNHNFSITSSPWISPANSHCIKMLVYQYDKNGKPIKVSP
UniProt Q9ULW8, sequence (whole entry, looked up): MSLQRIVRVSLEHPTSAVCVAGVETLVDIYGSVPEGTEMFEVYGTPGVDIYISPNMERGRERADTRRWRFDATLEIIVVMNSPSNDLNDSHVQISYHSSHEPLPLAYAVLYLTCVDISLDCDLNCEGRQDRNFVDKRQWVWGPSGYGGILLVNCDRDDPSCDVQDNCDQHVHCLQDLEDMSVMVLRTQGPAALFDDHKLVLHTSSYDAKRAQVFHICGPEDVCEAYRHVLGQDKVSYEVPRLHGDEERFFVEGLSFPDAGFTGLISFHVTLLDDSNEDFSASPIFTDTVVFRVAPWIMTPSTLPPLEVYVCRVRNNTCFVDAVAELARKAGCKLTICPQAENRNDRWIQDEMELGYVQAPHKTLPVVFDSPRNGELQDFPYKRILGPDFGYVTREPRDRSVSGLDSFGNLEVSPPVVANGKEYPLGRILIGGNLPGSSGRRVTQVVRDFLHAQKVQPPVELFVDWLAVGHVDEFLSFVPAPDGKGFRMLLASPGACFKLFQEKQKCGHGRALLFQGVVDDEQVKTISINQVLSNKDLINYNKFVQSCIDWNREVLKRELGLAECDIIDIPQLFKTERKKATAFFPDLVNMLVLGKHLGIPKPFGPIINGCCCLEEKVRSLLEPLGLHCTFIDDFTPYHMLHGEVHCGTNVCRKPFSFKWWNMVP
UniProt P20813, sequence (whole entry, looked up): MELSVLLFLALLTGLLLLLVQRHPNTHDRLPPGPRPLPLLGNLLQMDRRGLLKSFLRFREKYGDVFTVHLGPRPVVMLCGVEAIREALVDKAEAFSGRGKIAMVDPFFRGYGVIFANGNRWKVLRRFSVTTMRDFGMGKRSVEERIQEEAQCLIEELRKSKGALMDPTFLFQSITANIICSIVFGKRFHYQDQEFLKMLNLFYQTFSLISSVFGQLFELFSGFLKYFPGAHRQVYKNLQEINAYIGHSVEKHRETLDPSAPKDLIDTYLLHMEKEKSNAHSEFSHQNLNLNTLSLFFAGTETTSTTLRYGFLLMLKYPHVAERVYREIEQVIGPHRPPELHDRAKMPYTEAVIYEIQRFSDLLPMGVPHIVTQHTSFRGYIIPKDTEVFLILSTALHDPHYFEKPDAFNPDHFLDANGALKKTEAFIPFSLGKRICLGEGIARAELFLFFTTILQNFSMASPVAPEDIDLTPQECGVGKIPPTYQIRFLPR
UniProt Q13177, sequence (whole entry, looked up): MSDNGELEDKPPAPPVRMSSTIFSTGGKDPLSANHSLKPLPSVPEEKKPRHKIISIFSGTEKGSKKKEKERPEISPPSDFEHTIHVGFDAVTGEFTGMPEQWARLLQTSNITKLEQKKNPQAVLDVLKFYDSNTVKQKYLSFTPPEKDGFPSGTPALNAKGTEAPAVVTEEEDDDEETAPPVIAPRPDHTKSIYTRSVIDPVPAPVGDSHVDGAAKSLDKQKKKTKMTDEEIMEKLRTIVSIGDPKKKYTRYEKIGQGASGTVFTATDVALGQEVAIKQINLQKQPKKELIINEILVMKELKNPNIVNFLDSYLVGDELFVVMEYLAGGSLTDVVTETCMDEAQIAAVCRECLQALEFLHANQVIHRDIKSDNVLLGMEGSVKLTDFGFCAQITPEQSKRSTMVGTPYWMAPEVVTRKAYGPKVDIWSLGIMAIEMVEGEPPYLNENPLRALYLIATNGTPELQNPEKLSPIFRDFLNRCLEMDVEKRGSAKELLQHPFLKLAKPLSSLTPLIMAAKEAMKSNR
UniProt Q14004, sequence (whole entry, looked up): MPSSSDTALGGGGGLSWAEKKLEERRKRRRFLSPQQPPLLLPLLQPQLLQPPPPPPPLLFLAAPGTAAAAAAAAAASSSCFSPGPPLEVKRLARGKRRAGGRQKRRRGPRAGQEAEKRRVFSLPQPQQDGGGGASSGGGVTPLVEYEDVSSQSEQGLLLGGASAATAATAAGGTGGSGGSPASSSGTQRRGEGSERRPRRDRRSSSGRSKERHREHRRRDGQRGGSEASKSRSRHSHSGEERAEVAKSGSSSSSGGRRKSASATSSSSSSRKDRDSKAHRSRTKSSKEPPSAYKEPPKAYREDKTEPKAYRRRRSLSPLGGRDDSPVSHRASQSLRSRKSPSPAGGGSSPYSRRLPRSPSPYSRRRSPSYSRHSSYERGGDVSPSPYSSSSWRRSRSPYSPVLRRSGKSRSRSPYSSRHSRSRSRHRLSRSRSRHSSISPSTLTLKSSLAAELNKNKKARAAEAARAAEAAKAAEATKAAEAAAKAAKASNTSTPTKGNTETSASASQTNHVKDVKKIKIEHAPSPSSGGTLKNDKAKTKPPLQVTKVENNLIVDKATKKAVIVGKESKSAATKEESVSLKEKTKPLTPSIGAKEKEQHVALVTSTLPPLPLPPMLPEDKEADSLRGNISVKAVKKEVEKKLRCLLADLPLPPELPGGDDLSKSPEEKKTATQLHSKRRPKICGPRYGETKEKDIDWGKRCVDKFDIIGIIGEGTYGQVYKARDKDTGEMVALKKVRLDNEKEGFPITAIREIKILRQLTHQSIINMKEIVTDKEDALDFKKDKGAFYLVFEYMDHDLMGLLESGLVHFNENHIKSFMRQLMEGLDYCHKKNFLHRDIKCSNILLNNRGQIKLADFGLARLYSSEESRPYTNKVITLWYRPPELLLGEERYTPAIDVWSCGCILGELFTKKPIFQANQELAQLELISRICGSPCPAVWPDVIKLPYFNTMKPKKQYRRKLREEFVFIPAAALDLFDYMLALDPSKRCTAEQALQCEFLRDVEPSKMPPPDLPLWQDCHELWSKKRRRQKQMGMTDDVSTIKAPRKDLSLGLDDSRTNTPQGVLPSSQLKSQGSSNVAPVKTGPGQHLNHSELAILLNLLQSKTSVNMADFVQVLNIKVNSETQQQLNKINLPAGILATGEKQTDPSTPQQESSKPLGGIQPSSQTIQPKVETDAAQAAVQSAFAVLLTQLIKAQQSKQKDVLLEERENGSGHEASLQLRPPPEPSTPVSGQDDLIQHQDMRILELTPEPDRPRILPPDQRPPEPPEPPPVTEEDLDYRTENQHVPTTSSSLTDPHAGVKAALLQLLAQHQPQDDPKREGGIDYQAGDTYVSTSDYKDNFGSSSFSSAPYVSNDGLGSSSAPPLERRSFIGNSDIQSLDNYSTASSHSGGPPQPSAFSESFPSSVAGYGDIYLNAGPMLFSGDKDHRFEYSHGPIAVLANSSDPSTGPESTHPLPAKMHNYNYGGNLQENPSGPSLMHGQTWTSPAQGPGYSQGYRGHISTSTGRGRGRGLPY
UniProt Q9DB29, sequence (whole entry, looked up): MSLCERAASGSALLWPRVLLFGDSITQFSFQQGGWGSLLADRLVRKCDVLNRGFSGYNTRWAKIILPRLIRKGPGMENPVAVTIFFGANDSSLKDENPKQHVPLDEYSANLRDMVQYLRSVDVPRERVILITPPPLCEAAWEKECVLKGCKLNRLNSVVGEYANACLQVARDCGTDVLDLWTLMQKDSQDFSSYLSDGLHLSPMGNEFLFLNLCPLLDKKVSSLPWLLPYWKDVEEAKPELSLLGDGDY
UniProt P28335, sequence (whole entry, looked up): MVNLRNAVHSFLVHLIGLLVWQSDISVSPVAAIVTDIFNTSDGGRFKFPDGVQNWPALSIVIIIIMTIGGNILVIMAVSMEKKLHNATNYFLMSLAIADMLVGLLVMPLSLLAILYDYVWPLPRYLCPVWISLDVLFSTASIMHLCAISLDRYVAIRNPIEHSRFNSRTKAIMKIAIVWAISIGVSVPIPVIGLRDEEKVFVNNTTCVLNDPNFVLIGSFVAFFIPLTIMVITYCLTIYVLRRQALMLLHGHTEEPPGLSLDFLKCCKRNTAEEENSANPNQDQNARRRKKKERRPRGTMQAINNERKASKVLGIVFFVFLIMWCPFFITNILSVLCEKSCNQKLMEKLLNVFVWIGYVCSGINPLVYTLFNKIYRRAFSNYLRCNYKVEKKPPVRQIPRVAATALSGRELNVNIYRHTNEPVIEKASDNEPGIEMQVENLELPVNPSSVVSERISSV

CCNC(=S)NN=Cc1c2ccccc2cc2ccccc12.Cc1ccc(C(C)C)cc1.[Cl-].[Cl-].[Ru+2]: “enthalpy change (ΔH°)” 11.5 kcal/mol (Albumin (ALB, Homo sapiens, UniProt P02768); binding, van't Hoff, modified Stern-Volmer; concentration not given).
CC[C@H](C)[C@H](NC(=O)[C@H](CO)NC(=O)[C@H](Cc1ccc(O)cc1)NC(=O)[C@H](Cc1ccc(O)cc1)NC(=O)[C@H](CC(N)=O)NC(=O)CNC(=O)[C@H](CO)NC(=O)[C@H](Cc1ccc(O)cc1)NC(=O)[C@H](CO)NC(=O)[C@H](CO)NC(=O)[C@H](CC(N)=O)NC(=O)COCCOCCNC(=O)CN1CCN(CC(=O)O)CCN(CC(=O)O)CCN(CC(=O)O)CC1)C(=O)N[C@@H](CC(C)C)C(N)=O [copper-64 labelled] gave a tumour uptake of 8.47 %ID/mL (dynamic PET; mouse, tamoxifen-induced PDAC, tumor; intravenous, 0.1 µg/mouse, 17.5 min).
Under “maximal open probability”, CCCCC/C=C\C/C=C\C/C=C\C/C=C\CCCC(=O)NCCc1ccc(O)c(O)c1 is recorded as 0.71 ± 0.15 (Trpv1 (Mus musculus, UniProt Q704Y3, T551S); ion current, agonist, whole-cell patch clamp; T551S; baseline: 3 mM 2-APB).
Cc1cc(Nc2nc(C[C@@]3(C(=O)O)CCN(Cc4cccc(Cl)c4F)[C@H](C)C3)cc(C)c2F)[nH]n1 has an activation of 0.41% (HTR2C (Homo sapiens, UniProt P28335); agonist; 10 µM).
N[C@H](C(=O)N1CCCC1)C1CCN(c2nccc3c(-c4ncc(Cl)cc4Cl)cccc23)CC1 has a kcat of 0.0199 s⁻¹ and 0.0175 s⁻¹ (PADI3 (Homo sapiens, UniProt Q9ULW8); enzyme activity; 0.6144 µM, together with: Ca2+ 0.25 mM).
Cc1cc(C(=O)Nc2nc3cccc(C)c3n2[C@H]2CCCCN(C(=O)/C=C/CN(C)C)C2)ccn1 gave a survival of 100% (Trypanosoma brucei; STIB795, mouse acute HAT model; oral, 7.5 mg/kg once daily for 4 days, day 0; baseline: mice).
CC[C@H](C)[C@@H]1NC(=O)[C@H](Cc2ccc(O)cc2)NC(=O)[C@H](CCCNC(=N)N)NC(=O)[C@@H](NC(=O)[C@H](C)N)CSSC[C@@H](C(=O)N[C@@H](CO)C(=O)NCC(N)=O)NC(=O)[C@H](Cc2ccccc2)NC(=O)[C@H](Cc2c[nH]c3ccccc23)NC(=O)CNC(=O)[C@@H]2CSSC[C@H](NC1=O)C(=O)N[C@@H](CC(C)C)C(=O)N[C@@H](CO)C(=O)N[C@@H](Cc1ccccc1)C(=O)N[C@@H](CCCNC(=N)N)C(=O)N[C@@H](Cc1c[nH]cn1)C(=O)N2 — result for “dissociation rate constant”: 0.00041 s⁻¹ (Beta-lactamase GES-5 (blaGES-5, Klebsiella pneumoniae, UniProt Q09HD0); surface plasmon resonance; pH 7.4, 25 °C, 2% DMSO, 0.005% Tween-20, 1:1 model).
CCN1CCN(C2CCN(C(=O)COc3ccc(-c4ccc(OC)cc4)cc3)CC2)CC1: IC50 “inactive” (uncharacterized protein (Anopheles gambiae, UniProt Q7QFG0); enzyme activity, inhibitor, Ellman; up to 1000 µM, pH 7.4, 30 °C, together with: 1 mM acetylthiocholine).
With CS(C)(=O)=Nc1ccc(-c2ccc(-c3nc4cc(O[C@@H]5CO[C@H]6[C@@H]5OC[C@H]6O)[nH]c4cc3F)cc2)cc1 the inhibition was 16% (MAPKAPK3 (Homo sapiens, UniProt Q16644); enzyme activity, inhibitor; 10 µM).
CCOC(=O)[C@@H]1Cc2c(cc([N+](=O)[O-])cc2[N+](=O)[O-])[C@H](O)[C@]12C(=O)Nc1ccc(Br)cc12 gave a remaining binding of 47% (MAP2K2 (Homo sapiens, UniProt P36507); binding, competition with immobilised ligand; 0.1 µM).
Cc1nc2cccc(OCC(C)(C)C(=O)NC(C)C)c2c(N)c1C(=O)[O-].[Na+] — result for “revertant colonies per plate”: 11 ± 4 (Salmonella typhimurium; TA1537; 2.0 mg per plate, without S9, plate incorporation).
For Nc1ccc(/C=C/C(=O)N2CCc3c(oc4c(-c5ccc(F)cc5)cc(-c5ccc(C(=O)N6CCC(F)(F)CC6)cn5)cc34)C2)cn1, the remaining binding was 100% (IGF1R (Homo sapiens, UniProt P08069); binding, competition with immobilised ligand; 1 µM).
For O=C1NC(=O)c2c1c1cc(F)c[n+]3c1c1c2c2cc(O)ccc2[n]1[Ru-4]312([N]=C=S)[S+]3CC[S+]1CC[S+]2CC3 (stereo not drawn), the remaining activity was 63% (HIPK3 (Homo sapiens, UniProt Q9H422); enzyme activity; 100 nM, human enzyme, together with: 10 µM ATP; baseline: untreated).
For Cc1cc(-c2ccc3ccccc3c2)nnc1NCCN1CCN(C)CC1, the remaining compound was 98% (Cytochrome P450 2B6 (CYP2B6, Homo sapiens, UniProt P20813); substrate; recombinant enzyme; 100 nM, 0.5 h).
With CC(C)[C@H]1NC(=O)C[C@H]2/C=C/CCSSC[C@@H](NC1=O)C(=O)N[C@H](Cc1cccc3ccccc13)C(=O)NCC(=O)O2 the inhibition was 1.2% (NTRK2 (Homo sapiens, UniProt Q16620); enzyme activity, inhibitor; 10 µM).
For COc1ccccc1-c1n[nH]c2nc(N[C@H]3CC[C@H](NS(=O)(=O)CC(C)C)CC3)ncc12, the relative abundance was 0.92 (bead binding, competition bead pull-down, refers to: LINJ.23.0050; Leishmania donovani extract; 10 µM; baseline: vehicle).
With C=CC(=O)Nc1cc(-c2ccc(C(=O)N3CCCC(O)(CC)C3)cc2)ccc1F (stereo not drawn) the adducted protein was 0% (DNA dC->dU-editing enzyme APOBEC-3B, C-terminal domain (Homo sapiens, UniProt Q9UH17); covalent adduct, intact protein MS; 1 h, 1-fold, 25 µM).
Under “concentration at peak fluorescence”, CC[C@H](C)[C@@H]1NC(=O)[C@@H](CCCNC(=N)N)NC(=O)[C@@H](NC(=O)[C@@H](CC(C)C)NC(=O)[C@H](C)NC(=O)[C@H](C)NC(=O)[C@@H]2CCCN2C(=O)[C@@H](CC(C)C)NC(=O)[C@@H](NC(=O)[C@@H](CCCNC(=N)N)NC(=O)[C@@H](CC(C)C)NC(=O)[C@@H](CC(C)C)NC(=O)[C@@H](NC(=O)[C@@H](CCCNC(=N)N)NC(=O)[C@@H](CC(C)C)NC(=O)[C@@H](NC(=O)[C@@H](NC(=O)CNC(=O)[C@@H](CC(C)C)NC(=O)[C@@H](N)Cc2ccccc2)[C@@H](C)O)C(C)C)C(C)C)C(C)C)CSSC[C@@H](C(=O)O)NC(=O)[C@@H](CCCNC(=N)N)NC(=O)[C@@H](CCCNC(=N)N)NC(=O)[C@H](Cc2ccccc2)NC1=O is recorded as 1 µM (Staphylococcus aureus lipoteichoic acid; lipoteichoic acid binding, BODIPY TR cadaverine displacement).
For C[C@H](NCc1ccc(-c2ccc(C(F)(F)F)cc2)cc1)C(N)=O, the inhibition was 28% (PLK4 (Homo sapiens, UniProt O00444); cell-free assay, competition with immobilised ligand; 1 µM).
With O=C(N[C@@H]1c2ccccc2C[C@H]1N1CCCC1)c1ccc(-c2ccnc3[nH]ccc23)nc1 the remaining binding was 3.1% (CDK13 (Homo sapiens, UniProt Q14004); binding, competition with immobilised ligand; 3 µM).
With CC[C@H](C)[C@H](NC(=O)[C@H](CCCNC(=N)N)NC(=O)[C@H](CCCNC(=N)N)NC(=O)[C@H](CC(C)C)NC(=O)[C@H](Cc1ccccc1)NC(=O)CNC(=O)CNC(=O)[C@@H](N)Cc1ccc(O)cc1)C(=O)N[C@@H](CCCNC(=N)N)C(=O)N1CCC[C@H]1C(=O)N[C@@H](CCCCN)C(=O)N[C@@H](CC(C)C)C(=O)N[C@@H](CCCCN)C(=O)O the Emax was 81.5% and 81.3% (GPR139 (Homo sapiens, UniProt Q6DWJ6); Gαq activation, agonist, BRET; HEK293T/17; 40 µM).
For COc1ncc2nc(C)n(Cc3ncc(S(N)(=O)=O)cc3F)c2c1-c1ccccc1, the activity was -3.25% (HTR2A; cells; 10 µM).
The selectivity ratio of CCC1(CC)C(=O)N(c2cccc(CN3CCN(Cc4ccc(Br)cc4)CC3)c2)C1=O is reported as 7 (Dipeptidyl peptidase 8 (Homo sapiens, UniProt Q6V1X1); inhibitor; together with: GP-AMC substrate; baseline: Ki' DPP9 over Ki' DPP8).
For CC(C)CC(O)(CC(C)C)c1cn(C(=O)N2CCCC2)nn1, “SILAC activity ratio” read 0.92 and 1.02 and 0.88 and 1.12 and 1.1 (Platelet-activating factor acetylhydrolase 2, cytoplasmic (Mus musculus, UniProt Q8VDG7); probe labelling, inhibitor, competitive ABPP-SILAC; mouse T cells; concentration not given, 4 h, single peptide; baseline: treated over DMSO cells, lower = stronger inhibition).
The MST response of CN(C)CCCSC(=S)N1CCN(C(=O)/C=C/c2coc3ccccc3c2=O)CC1 is reported as 846 a.u. (Nucleoprotein (N, Tomato spotted wilt virus, UniProt P25999, R94A); binding, microscale thermophoresis; 500 µM; dose series).
C#CCCCCOc1ccc2c(c1)CCCN2C(=O)CCl gave a reactivity ratio of 1.05 (ALDH1B1 (Homo sapiens, UniProt P30837); mass spectrometry profiling; H460 cell lysate; 100 µM over 10 µM, UniProt P30837; baseline: high over low concentration).
COc1ccccc1-c1n[nH]c2nc(NC3CCN(C(=O)Cc4ccc(F)cc4F)CC3)ncc12 gave a relative abundance of 1.09 (bead binding, competition bead pull-down, refers to: LINJ.34.3890; Leishmania donovani extract; 10 µM; baseline: vehicle).
The activation of CCN(CC)CCOc1ccc(-c2nnn(Cc3ccc(OC)cc3)c2N)cc1 is reported as 0.28% (EDNRA (Homo sapiens, UniProt P25101); calcium flux, FLIPR; HEK293; 12000 nM).
With CN(C)[C@H]1C[C@@]23CC[C@@]4(O2)C(=CC[C@]2(C)[C@@H](c5ccc6ccncc6c5)CC[C@H]24)C=C3[C@@H](O)[C@@H]1O the inhibition was 2.5% (PAK2 (Homo sapiens, UniProt Q13177); probe labelling, inhibitor, KiNativ ATP probe MS; native lysate; 1 µM).
With CC(C)(C)C(=O)OCOP(=O)(OCOC(=O)C(C)(C)C)C1CCCN(O)C1=O (stereo not drawn) the log LC50 was over -4 log M (UACC-62).
The serum urea of O=C1NC2(CC2)COc2ncc(F)cc2[C@H]2COCCN2c2ccn3ncc1c3n2 is reported as 4.44 ± 0.73 mmol/L (Sprague-Dawley rat, male, serum; oral, 5 mg/kg/day, end of treatment, 4-week subacute toxicity).
COCC1CCCCN1C(=O)n1cc(C(O)(c2ccccc2)c2ccccc2)nn1 (stereo not drawn) — result for “SILAC activity ratio”: 1.38 (Isoamyl acetate-hydrolyzing esterase 1 homolog (Iah1, Mus musculus, UniProt Q9DB29); probe labelling, inhibitor, competitive ABPP-SILAC, refers to: Iah1; mouse T cells; concentration not given, 4 h, protein level; baseline: treated over DMSO cells, lower = stronger inhibition).
For CCc1nnc(-c2c(OC)cc(-c3cnc4cc(-c5cnn(C)c5)ccn34)cc2OC)o1, the remaining binding was 113% (HTR2A; agonist radioligand, radioligand binding; 10 µM, SafetyScreen44 5-HT2A replicate 2; lower = stronger displacement).

Some of these lines once more:
Cc1nc2cccc(OCC(C)(C)C(=O)NC(C)C)c2c(N)c1C(=O)[O-].[Na+] — result for “revertant colonies per plate”: 11 ± 4 (Salmonella typhimurium; TA1537; 2.0 mg per plate, without S9, plate incorporation).
For Nc1ccc(/C=C/C(=O)N2CCc3c(oc4c(-c5ccc(F)cc5)cc(-c5ccc(C(=O)N6CCC(F)(F)CC6)cn5)cc34)C2)cn1, the remaining binding was 100% (IGF1R (Homo sapiens, UniProt P08069); binding, competition with immobilised ligand; 1 µM).
For O=C1NC(=O)c2c1c1cc(F)c[n+]3c1c1c2c2cc(O)ccc2[n]1[Ru-4]312([N]=C=S)[S+]3CC[S+]1CC[S+]2CC3 (stereo not drawn), the remaining activity was 63% (HIPK3 (Homo sapiens, UniProt Q9H422); enzyme activity; 100 nM, human enzyme, together with: 10 µM ATP; baseline: untreated).
For Cc1cc(-c2ccc3ccccc3c2)nnc1NCCN1CCN(C)CC1, the remaining compound was 98% (Cytochrome P450 2B6 (CYP2B6, Homo sapiens, UniProt P20813); substrate; recombinant enzyme; 100 nM, 0.5 h).
